Experimental data gathered from unrelated publications.
Protocols differ between the studies behind these lines. Numbers after ± are the reported error. ≈ marks a conversion by molar mass, not a printed value.

Structure (SMILES)	tested on	assay	system	setting	how to read	endpoint	value
COc1ccc(OC)c(/C(=C\c2ccc(O)c(O)c2)C(=O)NCCc2ccc(O)cc2)c1			mouse liver cytosol	concentration not given, 30 min, added: FLZ		formation from FLZ	not detected
CCCC[C@H](NC(=O)[C@H](CC(C)C)N(C)C(=O)CNC(=O)[C@@H](NC(=O)[C@H](Cc1ccccc1)NC(=O)[C@H](CCCCN)NC(=O)[C@@H](N)CC(=O)O)C(C)C)C(N)=O			anaesthetized spinalized rat	IV, dose not given, not significant	reference: baseline	systolic pressure decrease	< 8%
CCCCNCC(=O)O		shake flask	water	24 h		logP	-1.97
[64Cu+2].c1cnc(CNCc2ccc(CN3CCCN4CCNCCCN(CC4)CC3)cc2)nc1	CXCR4		NOD/SCID mouse, U87 and U87-stb-CXCR4 xenografts, bladder	iv, 60 min, ex vivo		tissue uptake	2.15 ± 0.32 %ID/g
Cc1cc2c(cc1C1(c3ncc(C(=O)O)cn3)CC1)C(C)(C)CCC2(C)C			Sprague-Dawley rat, male	oral, 100 mg/kg, 3 h, sesame oil vehicle		blood triglycerides	118 ± 8.9 mg/dL
CCCC[C@@H]1NC(=O)[C@@H](NC(=O)[C@H](CCC(=O)O)NC(=O)CNC(=O)CN2CCN(CC(=O)O)CCN(CC(=O)O)CCN(CC(=O)O)CC2)CCCCNC(=O)C[C@@H](C(N)=O)NC(=O)[C@H](C(C)C)NC(=O)[C@@H]2CCCN2C(=O)[C@H](CCCNC(=N)N)NC(=O)CNC(=O)[C@H](Cc2c[nH]c3ccccc23)NC(=O)[C@H](CCCNC(=N)N)NC(=O)[C@@H](Cc2ccccc2)NC(=O)[C@H](Cc2c[nH]cn2)NC(=O)[C@H](CCC(=O)O)NC1=O [gallium-67 labelled]			C57 mice with B16/F1 melanoma, heart	intravenous, 2 h		tissue uptake	0.04 ± 0.04 %ID/g
CC(C)c1cnc(-c2cc(Cl)ccc2F)cc1Nc1ccncc1C(=O)NC(CO)CO		measured: anaemia	human patients	oral, dose not given, grade 4		patients with related SAE	0%
O=C(O)c1cc2cc(O)ccc2n1Cc1ccc(Cl)c(C(F)(F)F)c1			male Wistar Hannover rat	oral, 500 mg/kg single dose		serum ALT	205 U/L
NC[C@@H](C(=O)Nc1ccc(-c2cn[nH]c2)cc1)c1ccccc1		OECD 405 eye irritation	New Zealand White rabbit, eye	topical, 0.1%, 48 h (day 3)	direction not given	total eye irritation score	0
CC(=O)N[C@H](C)c1cc(Cl)ccc1Cn1c(=S)[nH]c(=O)c2[nH]ccc21			Sprague-Dawley rat, male, plasma	oral, 125 mg/kg/day	reference: rat over human 10 mg	exposure ratio	1.2
CC12CC(c3ccc(S(C)(=O)=O)cc3)C3=C4CCC(=O)C=C4CCC3C1CCC2(O)C(F)(F)C(F)(F)F (stereo not shown)			human, plasma	intravenous, 15.7 µg		Vd	~360 L
CC(C)[C@H](NC(=O)[C@@H]1CCCN1C(=O)[C@H](CCCNC(=N)N)NC(=O)[C@H](CS)NC(=O)[C@H](Cc1c[nH]c2ccccc12)NC(=O)[C@H](CCCNC(=N)N)NC(=O)[C@@H](Cc1ccccc1)NC(=O)[C@H](Cc1c[nH]cn1)NC(=O)[C@H](CCC(=O)O)NC(=O)[C@H](CS)NC(=O)[C@H](CS)NC(=O)[C@@H]1CC(=O)N[C@@H](CCCNC(=N)N)C(=O)NCC(=O)N[C@@H](CC(=O)O)C(=O)N[C@H](Cc2ccc(O)cc2)C(=O)N1)C(N)=O [technetium-99m labelled]			C57 mice B16/F1 melanoma female	iv, 2 h, added: NDP-MSH blockade	reference: tumour over kidneys	tumour-to-tissue ratio	0.19
CCCCC/C=C/C(=O)CCc1ccc(O)c(OC)c1	mAb 3-LD3	antibody binding, indirect competitive ELISA		added: coating antigen hapten 4-OVA		IC50	1.37 ng/mL (≈ 4.96 nM)
N=C(N)NCCC[C@@H]1NC(=O)[C@H](Cc2c[nH]c3ccccc23)NC(=O)[C@@H](CC2CCCCC2)NC(=O)[C@@H]2CCCN2C(=O)[C@@H](NC(=O)CCc2ccccc2)CCCNC1=O			C57BL/6J mice, spinal cord	intravenous, 1 mg/kg, two-compartment model		apparent central volume (V1/F)	0.07 µg/(ng/g)
NS(=O)(=O)Nc1ncnc(OCCOc2ncc(Br)cn2)c1-c1ccc(Br)cc1		metabolite formation	male Beagle dog, liver microsomes	5 mg/kg daily for 4 weeks		Vmax	517 ± 15 pmol/min/mg
CCCC[C@H](NC(=O)CNC(=O)CNC(=O)CN1CCN(CC(=O)O)CCN(CC(=O)O)CC1)C(=O)N[C@H]1CC(=O)NCCCC[C@@H](C(N)=O)NC(=O)[C@H](Cc2c[nH]c3ccccc23)NC(=O)[C@H](CCCNC(=N)N)NC(=O)[C@@H](Cc2ccccc2)NC(=O)[C@H](Cc2c[nH]cn2)NC1=O [gallium-67 labelled]			female C57 mice, B16/F1 melanoma	intravenous, 0.037 MBq, 0.5 h	reference: tumour over muscle	tumour to tissue ratio	28.2
CC(C)[C@H](NC(=O)CNC(=O)[C@H](CCC(N)=O)NC(=O)[C@H](C)N)C(=O)O		LC-MS/MS	human, male, plasma	intravenous, 10 mg/kg three times daily, day 3, first dose, 10 min infusion, geometric mean		half-life	4.2 min

Structure (SMILES)	tested on	assay	system	setting	how to read	endpoint	value
CCCC[C@H](NC(=O)CNC(=O)CNC(=O)CN1CCN(CC(=O)O)CCN(CC(=O)O)CCN(CC(=O)O)CC1)C(=O)N[C@H]1CC(=O)NCCCC[C@@H](C(N)=O)NC(=O)[C@H](Cc2c[nH]c3ccccc23)NC(=O)[C@H](CCCNC(=N)N)NC(=O)[C@@H](Cc2ccccc2)NC(=O)[C@H](Cc2c[nH]cn2)NC1=O [copper-64 labelled]			female C57 mouse, B16/F1 melanoma	intravenous, 0.037 MBq, 2 h	reference: tumour over heart	uptake ratio	2.97
C[C@H](CN(C)Cc1ccccc1)NC(=O)c1ccc(-c2noc(C(F)(F)[18F])n2)cc1		PET	Sprague-Dawley rat, female, brain and heart	intravenous, 60 min	reference: brain SUV over heart SUV	brain-to-heart ratio	2.29 ± 0.22
COc1ccc2cc(-c3ccc(-c4ccc(C)cn4)nc3)oc2c1		TCSPC	MeOH			radiative decay rate constant	0.36 ns⁻¹
CNC(=O)N[C@]1(C)CCC[C@@]2(C)C3CC[C@@]4(C)C[C@]3(CCC21)CC4=O (single isomer, unassigned)			processed rat plasma	400 ng/mL, 24 h, 4 °C, autosampler stability	reference: nominal concentration	relative error	11.1%
Cc1ccc(/N=N/c2c(O)ccc3ccccc23)c(C)c1			extracted rat blood QC samples	5.0 µg/L, 2 h, room temperature, short-term stability		measured concentration	4.91 µg/L
COc1ccc(Nc2nc(Nc3ccc(OCCOCC[18F])cc3)ncc2Br)cc1			ICR mice, S180 tumour	intravenous, 370 kBq, 15 min	reference: tumour over muscle	uptake ratio	2.4
CCCC[C@H](NC(=O)CN1CCC(NC(=O)CN2CCN(CC(=O)O)CCN(CC(=O)O)CCN(CC(=O)O)CC2)CC1)C(=O)N[C@H]1CC(=O)NCCCC[C@@H](C(N)=O)NC(=O)[C@H](Cc2c[nH]c3ccccc23)NC(=O)[C@H](CCCNC(=N)N)NC(=O)[C@@H](Cc2ccccc2)NC(=O)[C@H](Cc2c[nH]cn2)NC1=O		biodistribution	C57BL/6J mouse male tumour-bearing	2 h post injection, unblocked	reference: tumour over muscle	tumour to muscle ratio	211 ± 20.9
CC[C@H](C)[C@H](NC(=O)[C@@H]1CCCN1C(=O)CNC(=O)[C@H](Cc1ccccc1)NC(=O)[C@H](CC(N)=O)NC(=O)[C@H](CC(N)=O)NC(=O)[C@H](CO)NC(=O)[C@H](CO)NC(=O)[C@H](Cc1c[nH]cn1)NC(=O)[C@@H](NC(=O)[C@H](CC(C)C)NC(=O)[C@H](Cc1ccccc1)NC(=O)[C@H](CC(N)=O)NC(=O)[C@H](C)NC(=O)[C@H](CC(C)C)NC(=O)[C@H](CCCNC(=N)N)NC(=O)[C@H](CCC(N)=O)NC(=O)[C@@H](NC(=O)[C@H](C)NC(=O)[C@@H]1CSSC[C@H](NC(=O)[C@@H](N)CCCCN)C(=O)N[C@@H](CC(N)=O)C(=O)N[C@@H]([C@@H](C)O)C(=O)N[C@@H](C)C(=O)N[C@@H]([C@@H](C)O)C(=O)N1)[C@@H](C)O)C(C)C)C(=O)N[C@@H](CC(C)C)C(=O)N[C@@H](CO)C(=O)N1CCC[C@H]1C(=O)N[C@H](C(=O)N[C@@H](CC(N)=O)C(=O)N[C@H](C(=O)NCC(=O)N[C@@H](CO)C(=O)N[C@@H](CC(N)=O)C(=O)N[C@H](C(=O)N[C@@H](Cc1ccc(O)cc1)C(N)=O)[C@@H](C)O)C(C)C)[C@@H](C)O		ion mobility mass spectrometry	nitrogen drift gas	monomer ion charge +3		collision cross section	546.5 ± 4.8 Å²
COc1cc2c(cc1OC)CN(CCCCn1ccc3cc(OCC[18F])ccc31)C2			male CD-1 mouse, kidney	intravenous, 2 min		tracer uptake	19 %ID/g
C#CCOc1ccc(/C=C2\SC(=O)N(CC(=O)NCc3ccccc3)C2=O)cc1		inverse Kirkwood-Buff integrals	binary solvent mixture	298.15 K, mole fraction x1 0.50		Kirkwood-Buff integral G2,3	-366 cm³/mol
CC[C@H](C)[C@H](NC(=O)[C@H](C)NC(=O)CNC(=O)[C@H](Cc1ccccc1)NC(=O)[C@H](CC(N)=O)NC(=O)[C@H](CC(N)=O)NC(=O)[C@H](CO)NC(=O)[C@H](CO)NC(=O)[C@H](Cc1c[nH]cn1)NC(=O)[C@@H](NC(=O)[C@H](CC(C)C)NC(=O)[C@H](Cc1ccccc1)NC(=O)[C@H](CC(N)=O)NC(=O)[C@H](C)NC(=O)[C@H](CC(C)C)NC(=O)[C@H](CCCNC(=N)N)NC(=O)[C@H](CCC(N)=O)NC(=O)[C@@H](NC(=O)[C@H](C)NC(=O)[C@@H]1CSSC[C@H](NC(=O)[C@@H](N)CCCCN)C(=O)N[C@@H](CC(N)=O)C(=O)N[C@@H]([C@@H](C)O)C(=O)N[C@@H](C)C(=O)N[C@@H]([C@@H](C)O)C(=O)N1)[C@@H](C)O)C(C)C)C(=O)N[C@@H](CC(C)C)C(=O)N1CCC[C@H]1C(=O)N1CCC[C@H]1C(=O)N[C@H](C(=O)N[C@@H](CC(N)=O)C(=O)N[C@H](C(=O)NCC(=O)N[C@@H](CO)C(=O)N[C@@H](CC(N)=O)C(=O)N[C@H](C(=O)N[C@@H](Cc1ccc(O)cc1)C(N)=O)[C@@H](C)O)C(C)C)[C@@H](C)O		ion mobility mass spectrometry	nitrogen drift gas	monomer ion charge +3		collision cross section	552 ± 8.4 Å²
COc1cccc(CNC[C@](O)(COCc2ccccc2)[C@@H]2CC[C@@H](C)C[C@H]2OCc2ccccc2)c1		PAMPA-GI	phosphatidylcholine-cholesterol membrane	500 µM, 4 h, pH 6.5, 37 °C, 5% DMSO		permeability	7.5 ± 0.3 ×10⁻⁶ cm/s
C#CC(C)NC(=O)C(CC(C)(C)F)NC(c1ccc(-c2ccc(S(C)(=O)=O)cc2)cc1)C(F)(F)F (stereo not shown)		LC-MS UV trace	aqueous buffer	concentration not given, 23 h, pH 5.5, 37 °C, added: cysteine 10 mM		cysteine adduct formation	< 1%
CCCC[C@H](NC(C)=O)C(=O)N[C@H]1CC(=O)NCCCC[C@@H](C(=O)N[C@@H](C(=O)N2CCC[C@@H]2C(N)=O)C(C)C)NC(=O)[C@H](Cc2c[nH]c3ccccc23)NC(=O)[C@H](CCCN=C(N)N)NC(=O)[C@@H](Cc2ccc3ccccc3c2)NC(=O)[C@@H]2CCCN2C1=O			Beagle dog, both sexes, plasma	subcutaneous, once daily, 0.75 mg/kg, day 5		half-life	114 ± 12 min
C[C@H]1C[C@@H](Oc2cccc(F)n2)CCN1Cc1cnc(N[11C](C)=O)s1			rhesus monkey, plasma	dose not given, 90 min, baseline, end of scan		unchanged parent	~50%
CCCCCCCC(=O)OC[C@H](NC(=O)[C@H](CO)NC(=O)CN)C(=O)N[C@@H](Cc1ccccc1)C(=O)N[C@@H](CC(C)C)C(=O)N[C@@H](CO)C(=O)N1CCC[C@H]1C(=O)N[C@@H](CCC(=O)O)C(=O)N[C@@H](Cc1cnc[nH]1)C(=O)N[C@@H](CCC(N)=O)C(=O)N[C@@H](CCCNC(=N)N)C(=O)N[C@H](C(=O)N[C@@H](CCC(N)=O)C(=O)N[C@@H](CCC(N)=O)C(=O)N[C@@H](CCCNC(=N)N)C(=O)N[C@@H](CCCCN)C(=O)N[C@@H](CCC(=O)O)C(=O)N[C@@H](CO)C(=O)N[C@@H](CCCCN)C(=O)N[C@@H](CCCCN)C(=O)N1CCC[C@H]1C(=O)N1CCC[C@H]1C(=O)N[C@@H](C)C(=O)N[C@@H](CCCCN)C(=O)N[C@@H](CC(C)C)C(=O)N[C@@H](CCC(N)=O)C(=O)N1CCC[C@H]1C(=O)N[C@@H](CCCNC(=N)N)C(=O)O)C(C)C			chronic HFrEF patients	intravenous infusion, 0.1 µg/kg/min, end of 120 min infusion		diastolic blood pressure	56.1 ± 10.3 mmHg
COc1cc(NC(C)=O)c2c(c1O)-c1c(OC)c(OC)cc3c1C(C2)N(C)CC3 (stereo not shown)			rat heart homogenate	100 µg/mL, 40 d, -20 °C, long-term storage		remaining compound	97.3 ± 3.6%
